{"data": "Assay results of several laboratories", "target": "Cytochrome P450 2B6 (CYP2B6, Homo sapiens, UniProt P20813)", "Residues used in one study (P20813 1-491)": "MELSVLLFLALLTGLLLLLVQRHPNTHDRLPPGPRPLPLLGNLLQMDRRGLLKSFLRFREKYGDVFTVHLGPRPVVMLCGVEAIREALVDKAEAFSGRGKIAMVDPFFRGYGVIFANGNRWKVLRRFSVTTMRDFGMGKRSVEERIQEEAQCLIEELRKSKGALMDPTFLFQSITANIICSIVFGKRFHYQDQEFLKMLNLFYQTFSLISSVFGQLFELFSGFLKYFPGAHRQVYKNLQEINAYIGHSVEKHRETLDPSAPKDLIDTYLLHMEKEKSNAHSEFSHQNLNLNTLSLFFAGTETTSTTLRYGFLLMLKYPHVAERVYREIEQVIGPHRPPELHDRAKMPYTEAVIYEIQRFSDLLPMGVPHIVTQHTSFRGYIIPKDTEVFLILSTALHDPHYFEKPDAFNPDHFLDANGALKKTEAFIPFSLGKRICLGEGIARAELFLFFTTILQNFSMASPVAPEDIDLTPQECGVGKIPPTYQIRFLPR", "note": "Lines come from different studies, so protocols differ. ± marks the error that the study gave."}
{"SMILES": "C=CC(=O)Nc1cc(Nc2nccc(-c3cn(C)c4ccccc34)n2)c(OCC(F)(F)F)nc1N(C)CCNC", "test": "substrate depletion", "test system": "recombinant human CYP", "conditions": "1 µM", "endpoint": "intrinsic clearance", "result": "0.32 µL/min/pmol"}
{"SMILES": "Cc1cc(C)c(CNC(=O)c2cc(Cl)c3c(c2C)O[C@@](C)([C@H]2CC[C@H](N(C)C)CC2)O3)c(=O)[nH]1", "test system": "recombinant human CYP2B6", "conditions": "0 and 30 min", "endpoint": "CLint", "result": "0.00272 µL/min/pmol"}
{"SMILES": "C[C@H]1CN(C2COC2)CCN1c1ccc(Nc2cc(-c3ccnc(N4CCn5c(cc6c5CC(C)(C)C6)C4=O)c3CO)cn(C)c2=O)nc1", "test": "substrate", "test system": "recombinant enzyme", "conditions": "1 µM, 60 min", "endpoint": "remaining compound", "result": "99.4 ± 8.2%"}
{"SMILES": "C[C@@H](c1ccc2nccn2c1)n1nnc2ncc(-c3cnn(C)c3)nc21", "test": "inhibitor", "test system": "pooled human liver microsomes", "conditions": "reversible inhibition", "endpoint": "IC50", "result": "> 100 µM"}
{"SMILES": "C=CC(=O)N(C)CCOc1c(N)ncnc1-c1cc(F)cc(NC(=O)c2ccc(C3CC3)cc2F)c1C", "test system": "recombinant human CYP", "conditions": "pH 7.4, scaled to liver microsomes", "endpoint": "relative unbound intrinsic clearance", "result": "1.5 µL/min/mg"}
{"SMILES": "N#C[C@H](C[C@@H]1CCCNC1=O)NC(=O)[C@H](CC1CC1)NC(=O)c1cc2cccc(Cl)c2[nH]1", "test": "NADPH metabolic stability", "conditions": "2 µM, pH 7.4, 100 pmol/mL enzyme", "endpoint": "intrinsic clearance", "result": "< 0.054 µL/min/pmol"}
{"SMILES": "C=CC(=O)Nc1cc(Nc2nccc(-c3cn(C)c4ccccc34)n2)c(OCC(F)(F)F)nc1N(C)CCN(C)C", "test": "substrate depletion", "test system": "recombinant human CYP", "conditions": "1 µM", "endpoint": "intrinsic clearance", "result": "0.27 µL/min/pmol"}
{"SMILES": "CN(C(=O)n1cnc(-c2ccc[n+]([O-])c2)c1)C1CCCCC1", "test": "enzyme activity, inhibitor", "test system": "pooled human liver microsomes", "conditions": "0.1 to 30 µg/mL", "endpoint": "inhibition", "result": "no effect"}
{"note": "A few entries again:"}
{"SMILES": "Cc1cc(C)c(CNC(=O)c2cc(Cl)c3c(c2C)O[C@@](C)([C@H]2CC[C@H](N(C)C)CC2)O3)c(=O)[nH]1", "test system": "recombinant human CYP2B6", "conditions": "0 and 30 min", "endpoint": "CLint", "result": "0.00272 µL/min/pmol"}
